Measured values gathered from unrelated publications.
Protocols differ between the studies behind these lines. “And” joins repeats or separate records; there may be more than shown. ± gives the spread as reported.
Urease: Urease (Canavalia ensiformis, UniProt P07374)
MC4R: Melanocortin receptor 4 (MC4R, Homo sapiens, UniProt P32245)
Cnr2: Cannabinoid receptor 2 (Cnr2, Mus musculus, UniProt P47936)
HTR2A: 5-hydroxytryptamine receptor 2A (HTR2A, Homo sapiens, UniProt P28223)

Structure (SMILES) | target | test | system | setting | Ki
CC(=O)NCP(C)(=O)O | Urease | enzyme activity, inhibitor, absorbance | – | pH 7 | 295000 nM
CC(=O)N[C@H](CCCNC(=N)N)C(=O)N[C@@H](Cc1ccc(O)cc1)C(=O)N[C@@H](CCCNC(=N)NC(=O)NCCCCN)C(=O)N[C@@H](CC(C)C)C(=O)N[C@@H](CCCNC(=N)N)C(=O)N[C@@H](Cc1ccc(O)cc1)C(N)=O | Neuropeptide Y receptor type 2 (NPY2R, Homo sapiens, UniProt P49146) | ligand displacement, radioligand | – | – | > 5000 nM
CC[C@H](C)[C@H](NC(=O)CN)C(=O)N[C@H](C(=O)N[C@@H](CC(N)=O)C(=O)N[C@H](C(=O)N[C@@H](CC(C)C)C(=O)N[C@@H](CCC(N)=O)C(=O)N[C@@H](CCCCN)C(=O)N[C@@H](Cc1ccc(O)cc1)C(=O)N[C@@H](Cc1ccc(O)cc1)C(=O)N[C@H]1CSSC[C@@H]2NC(=O)[C@H](CCC(N)=O)NC(=O)[C@H](CCC(N)=O)NC(=O)CNC(=O)[C@H](CCC(N)=O)NC(=O)[C@H]([C@@H](C)O)NC(=O)[C@H](CO)NC(=O)[C@@H]3CSSC[C@H](NC(=O)[C@H](CCCNC(=N)N)NC(=O)CNC(=O)CNC(=O)[C@H](CCCNC(=N)N)NC(=O)[C@H](C(C)C)NC(=O)[C@H](CCCNC(=N)N)NC1=O)C(=O)N[C@@H](C)C(=O)N[C@@H](C(C)C)C(=O)N[C@@H](CC(C)C)C(=O)N[C@@H](CO)C(=O)N[C@@H](CSSC[C@@H](C(=O)N[C@@H](CCCNC(=N)N)C(=O)N[C@@H](CCCNC(=N)N)C(=O)N[C@@H](CCCCN)C(=O)N[C@@H](CCCCN)C(N)=O)NC2=O)C(=O)N[C@@H](CC(C)C)C(=O)N1CCC[C@H]1C(=O)N[C@@H](CCCCN)C(=O)N[C@@H](CCC(=O)O)C(=O)N[C@@H](CCC(=O)O)C(=O)N[C@@H](CCC(N)=O)C(=O)N[C@@H]([C@@H](C)CC)C(=O)NCC(=O)N[C@@H](CCC(N)=O)C(=O)N3)[C@@H](C)O)[C@@H](C)CC | MC4R | ligand displacement in cells | – | – | 105 nM
CC1=C[C@H](O/C=C2/C(=O)O[C@@H]3c4ccccc4C[C@H]23)OC1=O (racemic) | RMS3 (Lathyrus oleraceus, UniProt A0A109QYD3) | cell-free assay, inhibitor | – | – | 102 nM and 100 nM
CC[C@H](C)[C@H](NC(=O)CN)C(=O)N[C@H](C(=O)N[C@@H](CC(N)=O)C(=O)N[C@H](C(=O)N[C@@H](CC(C)C)C(=O)N[C@@H](CCC(N)=O)C(=O)N[C@@H](CCCCN)C(=O)N[C@@H](Cc1ccc(O)cc1)C(=O)N[C@@H](Cc1ccc(O)cc1)C(=O)N[C@H]1CSSC[C@@H]2NC(=O)[C@H](CCCCN)NC(=O)[C@H](CCCNC(=N)N)NC(=O)CNC(=O)[C@H](CCCNC(=N)N)NC(=O)[C@H]([C@@H](C)O)NC(=O)[C@H](CO)NC(=O)[C@@H]3CSSC[C@H](NC(=O)[C@H](CCCNC(=N)N)NC(=O)CNC(=O)CNC(=O)[C@H](CCCNC(=N)N)NC(=O)[C@H](C(C)C)NC(=O)[C@H](CCCNC(=N)N)NC1=O)C(=O)N[C@@H](C)C(=O)N[C@@H](C(C)C)C(=O)N[C@@H](CC(C)C)C(=O)N[C@@H](CO)C(=O)N[C@@H](CSSC[C@@H](C(=O)N[C@@H](CCCNC(=N)N)C(=O)N[C@@H](CCCNC(=N)N)C(=O)N[C@@H](CCCCN)C(=O)N[C@@H](CCCCN)C(N)=O)NC2=O)C(=O)N[C@@H](CC(C)C)C(=O)N1CCC[C@H]1C(=O)N[C@@H](CCCCN)C(=O)N[C@@H](C)C(=O)N[C@@H](CCC(=O)O)C(=O)N[C@@H](CCC(N)=O)C(=O)N[C@@H]([C@@H](C)CC)C(=O)NCC(=O)N[C@@H](CCCCN)C(=O)N3)[C@@H](C)O)[C@@H](C)CC | MC4R | ligand displacement in cells | – | – | 222 nM
CCSc1nnc(-c2ccc(S(=O)(=O)NC(=O)COC(C)=O)cc2)o1 | Carbonic anhydrase 2 (CA2, Homo sapiens, UniProt P00918) | enzyme activity, inhibitor | – | – | 22.2 nM
O[C@@H]1[C@@H](O)[C@H](O)C[C@H]2N[C@@H]12 | Exo-1,4-beta-xylosidase xlnD (xlnD, Emericella nidulans, UniProt Q5BAS1) | covalent inhibitor | Aspergillus nidulans | pH 4.5, ambient, added: 4MU-β-D-xyloside | 36700 nM
Cc1cc2c(cc1Cl)-c1c(c(C(=O)NCC34CC5CC(CC(C5)C3)C4)nn1-c1ccc(Cl)cc1Cl)C2 | Cnr2 | ligand displacement, radioligand | – | – | 300 nM
NC(=O)COC(=O)c1cc(Br)ccc1F | Urease | enzyme activity, inhibitor | – | – | 9240 nM
Cc1cc2c(cc1Cl)-c1c(c(C(=O)NC(C)C3CCCCC3)nn1-c1ccc(Cl)cc1Cl)C2 (stereo not shown) | Cnr2 | ligand displacement, radioligand | – | – | 850 nM
CC[C@H](C)[C@H](NC(=O)CN)C(=O)N[C@H](C(=O)N[C@@H](CC(N)=O)C(=O)N[C@H](C(=O)N[C@@H](CC(C)C)C(=O)N[C@@H](CCC(N)=O)C(=O)N[C@@H](CCCCN)C(=O)N[C@@H](Cc1ccc(O)cc1)C(=O)N[C@@H](Cc1ccc(O)cc1)C(=O)N[C@H]1CSSC[C@@H]2NC(=O)[C@H](CCCCN)NC(=O)[C@H](CCCNC(=N)N)NC(=O)CNC(=O)[C@H](C)NC(=O)[C@H]([C@@H](C)O)NC(=O)[C@H](CO)NC(=O)[C@@H]3CSSC[C@H](NC(=O)[C@H](CCCNC(=N)N)NC(=O)CNC(=O)CNC(=O)[C@H](CCCNC(=N)N)NC(=O)[C@H](C(C)C)NC(=O)[C@H](CCCNC(=N)N)NC1=O)C(=O)N[C@@H](C)C(=O)N[C@@H](C(C)C)C(=O)N[C@@H](CC(C)C)C(=O)N[C@@H](CO)C(=O)N[C@@H](CSSC[C@@H](C(=O)N[C@@H](CCCNC(=N)N)C(=O)N[C@@H](CCCNC(=N)N)C(=O)N[C@@H](CCCCN)C(=O)N[C@@H](CCCCN)C(N)=O)NC2=O)C(=O)N[C@@H](CC(C)C)C(=O)N1CCC[C@H]1C(=O)N[C@@H](CCCCN)C(=O)N[C@@H](CCC(=O)O)C(=O)N[C@@H](CCC(=O)O)C(=O)N[C@@H](CCC(N)=O)C(=O)N[C@@H]([C@@H](C)CC)C(=O)NCC(=O)N[C@@H](CCCCN)C(=O)N3)[C@@H](C)O)[C@@H](C)CC | MC4R | ligand displacement in cells | – | – | 117 nM
CN(C)CP(C)(=O)O | Urease | enzyme activity, inhibitor, absorbance | – | pH 7 | 3700 nM
CC(C)(C)OC(=O)C[C@H](NC(=O)OCc1ccccc1)C(=O)CBr | Serine protease 1 (PRSS1, Bos taurus, UniProt P00760) | – | – | – | > 200000 nM
Clc1cc2oc3cc(Cl)c(Cl)cc3c2cc1Cl | Aryl hydrocarbon receptor (Ahr, Mus musculus, UniProt P30561) | radioligand binding, hydroxyapatite competition binding | in vitro expressed receptor | pH 7.5, added: [3H]TCDD 1.6 or 0.9 nM | 1.1 nM
CC[C@H](C)[C@H](NC(=O)CN)C(=O)N[C@H](C(=O)N[C@@H](CC(N)=O)C(=O)N[C@H](C(=O)N[C@@H](CC(C)C)C(=O)N[C@@H](CCC(N)=O)C(=O)N[C@@H](CCCCN)C(=O)N[C@@H](Cc1ccc(O)cc1)C(=O)N[C@@H](Cc1ccc(O)cc1)C(=O)N[C@H]1CSSC[C@@H]2NC(=O)[C@H](CCCCN)NC(=O)[C@H](CCCNC(=N)N)NC(=O)CNC(=O)[C@H](CCCNC(=N)N)NC(=O)[C@H]([C@@H](C)O)NC(=O)[C@H](CO)NC(=O)[C@@H]3CSSC[C@H](NC(=O)[C@H](CCCNC(=N)N)NC(=O)CNC(=O)CNC(=O)[C@H](CCCNC(=N)N)NC(=O)[C@H](C(C)C)NC(=O)[C@H](CCCNC(=N)N)NC1=O)C(=O)N[C@@H](C)C(=O)N[C@@H](C(C)C)C(=O)N[C@@H](CC(C)C)C(=O)N[C@@H](CO)C(=O)N[C@@H](CSSC[C@@H](C(=O)N[C@@H](C)C(=O)N[C@@H](CCCNC(=N)N)C(=O)N[C@@H](C)C(=O)N[C@@H](CCCCN)C(N)=O)NC2=O)C(=O)N[C@@H](CC(C)C)C(=O)N1CCC[C@H]1C(=O)N[C@@H](CCCCN)C(=O)N[C@@H](CCC(=O)O)C(=O)N[C@@H](CCC(=O)O)C(=O)N[C@@H](CCC(N)=O)C(=O)N[C@@H]([C@@H](C)CC)C(=O)NCC(=O)N[C@@H](CCCCN)C(=O)N3)[C@@H](C)O)[C@@H](C)CC | MC4R | ligand displacement in cells | – | – | 178 nM
COc1c(OCCOCCOCCOc2cccc(C(=O)C3CCN(CCc4ccc(F)cc4)CC3)c2OC)cccc1C(=O)C1CCN(CCc2ccc(F)cc2)CC1 | HTR2A | ligand displacement, radioligand | – | – | 7.2 nM
CC[C@H](C)[C@H](NC(=O)[C@H](CCC(=O)O)NC(=O)[C@H](Cc1ccc(Br)cc1)NC(=O)[C@@H](C)NC(=O)[C@@H](N)Cc1ccc(O)cc1)C(=O)N[C@H](C(=O)NCC(N)=O)[C@@H](C)CC | Kappa-type opioid receptor (Oprk1, Mus musculus, UniProt P33534) | ligand displacement, radioligand | – | cell membranes | > 1000 nM
COc1c(OCCOCCOCCOCCOCCOCCOc2cccc(C(=O)C3CCN(CCc4ccc(F)cc4)CC3)c2OC)cccc1C(=O)C1CCN(CCc2ccc(F)cc2)CC1 | HTR2A | ligand displacement, radioligand | – | – | 3 nM
CCCC[C@@H](CN[C@@H](CC(C)C)C(=O)N[C@@H](CCC(N)=O)C(=O)N[C@H](C(=O)O)[C@@H](C)CC)NC(=O)[C@H](CO)NC(=O)[C@H](CCCC)NC(=O)[C@@H]1CCCN1C(=O)[C@@H](N)CCCCN | Plasmepsin I (PMI, Plasmodium falciparum, UniProt Q7KQM4) | – | – | – | 73 ± 9 nM

For quick reference, copied from above:
Structure (SMILES) | target | test | system | setting | Ki
Cc1cc2c(cc1Cl)-c1c(c(C(=O)NCC34CC5CC(CC(C5)C3)C4)nn1-c1ccc(Cl)cc1Cl)C2 | Cnr2 | ligand displacement, radioligand | – | – | 300 nM
NC(=O)COC(=O)c1cc(Br)ccc1F | Urease | enzyme activity, inhibitor | – | – | 9240 nM
